Measurements gathered from unrelated publications.
Parts stem from different laboratories: compare values within a part only.

Block 1
Target: Histone acetyltransferase KAT6A, both winged helices, GST fusion (KAT6A, Homo sapiens, UniProt Q92794, residues 1-181)
Method: protein binding microarray
Molecule type: double-stranded DNA, one strand shown
Sample: in vitro
Tested at: not given
Setting: 8-mer, flanks averaged, mean of 2 arrays, mostly near background
Relative to: not given
Direction: higher = stronger binding
Target sequence (chain): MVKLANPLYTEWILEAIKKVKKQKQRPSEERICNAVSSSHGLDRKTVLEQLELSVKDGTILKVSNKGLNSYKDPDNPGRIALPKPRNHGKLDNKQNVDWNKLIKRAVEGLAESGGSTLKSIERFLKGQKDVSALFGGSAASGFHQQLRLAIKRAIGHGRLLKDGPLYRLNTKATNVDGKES
Strand	E-score
CCGACGAC	0.0939
TCGAGTAA	-0.172
ACGGTGTA	0.126
ACACCATC	-0.169
AGAGGCCG	0.0915
ATGGTAAA	-0.0112
CGGATATC	0.202

Block 2
Target: Max-binding protein MNT, bHLH-zipper, MAX partner unstated (MNT, Homo sapiens, UniProt Q99583, residues 220-300)
Method: protein-binding microarray
Molecule type: double-stranded DNA, one strand shown
Sample: in vitro
Tested at: not given
Setting: k-mer, scored over probes, only values ≥0.25
Direction: higher = stronger binding
Residues (chain): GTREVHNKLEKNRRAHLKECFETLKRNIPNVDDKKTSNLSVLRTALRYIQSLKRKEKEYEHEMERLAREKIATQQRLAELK
Strand	E-score
CCGTCACG	0.278
AGCACGTG	0.497
CCGCGTGC	0.467
ACCAGGTG	0.262

Block 3
Target: Sal-like protein 4, full length isoform A (SALL4, Homo sapiens, UniProt Q9UJQ4, residues 1-1053)
Chain of UniProt Q9UJQ4 (whole entry, looked up): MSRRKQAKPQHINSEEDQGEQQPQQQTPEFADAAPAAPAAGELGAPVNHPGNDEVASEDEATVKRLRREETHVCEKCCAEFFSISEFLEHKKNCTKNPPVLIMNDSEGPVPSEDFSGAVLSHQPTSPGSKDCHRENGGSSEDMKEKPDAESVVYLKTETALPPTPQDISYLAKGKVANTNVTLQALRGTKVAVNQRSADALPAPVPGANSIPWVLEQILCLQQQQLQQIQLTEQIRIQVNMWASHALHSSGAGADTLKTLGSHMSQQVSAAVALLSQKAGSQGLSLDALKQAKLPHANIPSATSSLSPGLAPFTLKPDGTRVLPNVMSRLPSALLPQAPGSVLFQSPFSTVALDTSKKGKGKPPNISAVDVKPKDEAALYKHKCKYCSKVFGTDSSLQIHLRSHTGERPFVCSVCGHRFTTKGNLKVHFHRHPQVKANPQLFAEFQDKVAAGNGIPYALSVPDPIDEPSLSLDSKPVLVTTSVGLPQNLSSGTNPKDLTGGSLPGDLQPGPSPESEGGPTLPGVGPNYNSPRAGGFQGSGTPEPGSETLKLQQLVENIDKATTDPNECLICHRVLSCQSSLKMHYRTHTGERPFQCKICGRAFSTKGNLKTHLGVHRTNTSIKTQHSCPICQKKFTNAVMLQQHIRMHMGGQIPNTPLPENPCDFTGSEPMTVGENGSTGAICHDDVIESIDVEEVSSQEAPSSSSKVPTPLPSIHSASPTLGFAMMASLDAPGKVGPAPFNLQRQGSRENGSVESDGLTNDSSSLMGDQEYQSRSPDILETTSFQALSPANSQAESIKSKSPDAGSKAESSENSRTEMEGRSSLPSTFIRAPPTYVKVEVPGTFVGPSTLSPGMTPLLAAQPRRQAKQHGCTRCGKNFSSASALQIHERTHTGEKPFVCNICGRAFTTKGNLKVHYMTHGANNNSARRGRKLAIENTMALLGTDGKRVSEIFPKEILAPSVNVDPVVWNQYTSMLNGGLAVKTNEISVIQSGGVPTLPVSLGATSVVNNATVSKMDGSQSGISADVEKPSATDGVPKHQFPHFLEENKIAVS
Method: universal PBM
Molecule type: double-stranded DNA, one strand shown
Sample: in vitro
Tested at: 600 nM
Setting: 8-mer, flanks averaged, mean of replicates
Direction: higher = stronger binding
Strand	E-score
ACACGAAT	0.152
ACTTGAGA	0.144
ACGGAATA	0.125
CACCCCTA	-0.139
ACGGGGAA	-0.0632

Other studies, line by line
Molecule	target	assay	system	setting	how to read	measurement	value
PhoQ, residues 284 288 289 292 302 303 ALVSVA	PhoP, residues 12 14 15 18 19 IFFTR (Escherichia coli, UniProt P23836)	Sort-seq, measured: YFP reporter	E. coli	PhoQ-PhoP variant library, together with: 10 µM Mg2+	relative to: high Mg2+ state, higher = stronger signaling	fold induction	4.42

Some of these lines once more (block 1):
Strand	E-score
AGAGGCCG	0.0915
CGGATATC	0.202
